{"data": "Assay results from different studies", "ALPL": "Alkaline phosphatase, tissue-nonspecific isozyme (ALPL, Homo sapiens, UniProt P05186)", "Proteasome component C5/PSMB5 chymotrypsin-like site": "Proteasome component C5/PSMB5, chymotrypsin-like site (Homo sapiens, UniProt P20618+P28074)", "Genome polyprotein NS2B-NS3 protease": "Genome polyprotein, NS2B-NS3 protease (ZIKV, UniProt A0A024B7W1)", "Genome polyprotein protease": "Genome polyprotein, protease (dengue virus type 2, UniProt P29990)", "note": "Each line is one published result; not all experiments were run side by side. Values joined by “and” are separate records of one study, mostly repeats; a detail may differ. ± gives the spread as reported.", "chain of UniProt P28074 (whole entry, looked up)": "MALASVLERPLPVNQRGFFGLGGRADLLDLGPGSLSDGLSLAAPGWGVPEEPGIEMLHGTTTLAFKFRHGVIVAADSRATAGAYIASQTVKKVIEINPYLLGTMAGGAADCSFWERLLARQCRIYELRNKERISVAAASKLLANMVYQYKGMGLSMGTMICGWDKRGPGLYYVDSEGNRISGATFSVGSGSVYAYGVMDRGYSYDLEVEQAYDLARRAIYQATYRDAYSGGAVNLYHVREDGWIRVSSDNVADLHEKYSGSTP", "chain of UniProt P05186 (whole entry, looked up)": "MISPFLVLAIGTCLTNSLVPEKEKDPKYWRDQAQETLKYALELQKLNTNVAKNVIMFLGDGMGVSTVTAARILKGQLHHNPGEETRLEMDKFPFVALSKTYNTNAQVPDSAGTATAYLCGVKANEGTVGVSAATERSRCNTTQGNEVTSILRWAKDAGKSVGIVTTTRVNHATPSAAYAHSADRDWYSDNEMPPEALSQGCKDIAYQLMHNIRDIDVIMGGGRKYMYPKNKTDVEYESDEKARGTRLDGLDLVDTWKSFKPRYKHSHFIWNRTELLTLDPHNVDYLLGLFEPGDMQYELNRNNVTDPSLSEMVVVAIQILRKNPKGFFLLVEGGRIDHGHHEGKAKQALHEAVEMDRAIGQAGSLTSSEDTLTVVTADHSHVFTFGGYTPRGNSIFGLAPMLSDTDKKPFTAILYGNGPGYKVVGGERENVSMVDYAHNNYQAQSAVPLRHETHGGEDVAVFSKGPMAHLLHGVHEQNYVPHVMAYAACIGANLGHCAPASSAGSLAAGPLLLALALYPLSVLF", "chain of UniProt P20618 (whole entry, looked up)": "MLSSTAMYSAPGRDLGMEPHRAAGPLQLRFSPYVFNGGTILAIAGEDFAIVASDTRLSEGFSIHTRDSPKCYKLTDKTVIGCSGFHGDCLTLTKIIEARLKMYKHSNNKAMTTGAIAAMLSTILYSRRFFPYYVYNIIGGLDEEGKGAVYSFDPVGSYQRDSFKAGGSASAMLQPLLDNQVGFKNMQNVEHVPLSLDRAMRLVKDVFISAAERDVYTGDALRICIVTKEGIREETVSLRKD", "chain of UniProt Q7Z2W7 (whole entry, looked up)": "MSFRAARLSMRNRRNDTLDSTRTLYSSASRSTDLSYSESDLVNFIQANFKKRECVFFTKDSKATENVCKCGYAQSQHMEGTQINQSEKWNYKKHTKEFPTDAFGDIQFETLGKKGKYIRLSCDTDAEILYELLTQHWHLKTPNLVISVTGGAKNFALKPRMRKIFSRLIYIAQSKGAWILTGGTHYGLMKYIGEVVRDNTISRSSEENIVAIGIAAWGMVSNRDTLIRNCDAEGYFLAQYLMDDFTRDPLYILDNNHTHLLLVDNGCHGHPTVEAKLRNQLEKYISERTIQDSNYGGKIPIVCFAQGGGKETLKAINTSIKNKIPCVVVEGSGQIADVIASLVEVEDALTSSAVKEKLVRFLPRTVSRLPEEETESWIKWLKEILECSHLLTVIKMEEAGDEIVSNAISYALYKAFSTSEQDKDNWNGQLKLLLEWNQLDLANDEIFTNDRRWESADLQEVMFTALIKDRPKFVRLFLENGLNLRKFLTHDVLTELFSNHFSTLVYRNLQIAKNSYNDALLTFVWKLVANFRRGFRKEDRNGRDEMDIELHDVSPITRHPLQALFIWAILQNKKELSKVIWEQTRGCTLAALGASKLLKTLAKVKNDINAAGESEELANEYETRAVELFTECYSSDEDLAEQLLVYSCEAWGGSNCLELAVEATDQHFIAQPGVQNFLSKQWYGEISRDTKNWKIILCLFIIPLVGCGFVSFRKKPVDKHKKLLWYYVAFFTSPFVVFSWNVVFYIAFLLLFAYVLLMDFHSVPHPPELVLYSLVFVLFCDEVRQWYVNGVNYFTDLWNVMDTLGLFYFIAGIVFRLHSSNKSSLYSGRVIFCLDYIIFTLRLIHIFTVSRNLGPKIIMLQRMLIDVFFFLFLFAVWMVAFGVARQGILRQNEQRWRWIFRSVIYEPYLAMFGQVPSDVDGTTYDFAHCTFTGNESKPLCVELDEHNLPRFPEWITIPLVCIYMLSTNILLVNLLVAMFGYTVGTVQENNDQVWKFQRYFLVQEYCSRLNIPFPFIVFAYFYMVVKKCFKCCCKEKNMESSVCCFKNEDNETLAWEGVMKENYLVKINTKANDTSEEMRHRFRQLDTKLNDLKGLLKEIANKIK", "chain of UniProt P37136 (whole entry, looked up)": "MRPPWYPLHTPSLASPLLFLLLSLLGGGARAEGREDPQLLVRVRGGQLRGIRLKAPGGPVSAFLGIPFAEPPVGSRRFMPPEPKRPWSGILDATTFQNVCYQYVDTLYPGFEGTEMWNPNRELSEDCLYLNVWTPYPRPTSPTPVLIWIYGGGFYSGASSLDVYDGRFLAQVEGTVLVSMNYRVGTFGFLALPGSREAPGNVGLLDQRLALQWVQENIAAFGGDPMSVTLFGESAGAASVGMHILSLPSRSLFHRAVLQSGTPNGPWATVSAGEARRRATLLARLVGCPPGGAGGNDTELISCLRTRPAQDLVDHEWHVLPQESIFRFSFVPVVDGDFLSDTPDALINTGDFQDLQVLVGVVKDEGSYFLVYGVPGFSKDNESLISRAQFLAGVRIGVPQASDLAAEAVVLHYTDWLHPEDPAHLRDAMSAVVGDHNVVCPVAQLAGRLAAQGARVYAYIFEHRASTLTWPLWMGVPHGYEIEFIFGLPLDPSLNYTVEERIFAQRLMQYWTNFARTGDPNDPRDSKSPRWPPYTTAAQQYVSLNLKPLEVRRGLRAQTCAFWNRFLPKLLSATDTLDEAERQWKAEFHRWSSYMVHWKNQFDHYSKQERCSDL", "chain of UniProt P18031 (whole entry, unmodified, looked up)": "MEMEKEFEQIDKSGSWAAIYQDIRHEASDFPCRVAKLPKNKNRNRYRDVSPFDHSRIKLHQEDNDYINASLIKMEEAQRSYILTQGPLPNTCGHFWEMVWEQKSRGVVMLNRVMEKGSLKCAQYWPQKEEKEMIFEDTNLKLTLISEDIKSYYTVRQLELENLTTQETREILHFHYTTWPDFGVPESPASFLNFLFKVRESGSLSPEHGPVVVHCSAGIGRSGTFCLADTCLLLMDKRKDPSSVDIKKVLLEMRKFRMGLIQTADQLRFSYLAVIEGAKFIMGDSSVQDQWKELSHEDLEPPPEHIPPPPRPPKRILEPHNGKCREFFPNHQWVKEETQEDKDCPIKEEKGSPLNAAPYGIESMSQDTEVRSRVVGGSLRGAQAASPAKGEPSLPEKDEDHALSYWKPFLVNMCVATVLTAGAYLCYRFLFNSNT", "chain of UniProt P33527 (whole entry, looked up)": "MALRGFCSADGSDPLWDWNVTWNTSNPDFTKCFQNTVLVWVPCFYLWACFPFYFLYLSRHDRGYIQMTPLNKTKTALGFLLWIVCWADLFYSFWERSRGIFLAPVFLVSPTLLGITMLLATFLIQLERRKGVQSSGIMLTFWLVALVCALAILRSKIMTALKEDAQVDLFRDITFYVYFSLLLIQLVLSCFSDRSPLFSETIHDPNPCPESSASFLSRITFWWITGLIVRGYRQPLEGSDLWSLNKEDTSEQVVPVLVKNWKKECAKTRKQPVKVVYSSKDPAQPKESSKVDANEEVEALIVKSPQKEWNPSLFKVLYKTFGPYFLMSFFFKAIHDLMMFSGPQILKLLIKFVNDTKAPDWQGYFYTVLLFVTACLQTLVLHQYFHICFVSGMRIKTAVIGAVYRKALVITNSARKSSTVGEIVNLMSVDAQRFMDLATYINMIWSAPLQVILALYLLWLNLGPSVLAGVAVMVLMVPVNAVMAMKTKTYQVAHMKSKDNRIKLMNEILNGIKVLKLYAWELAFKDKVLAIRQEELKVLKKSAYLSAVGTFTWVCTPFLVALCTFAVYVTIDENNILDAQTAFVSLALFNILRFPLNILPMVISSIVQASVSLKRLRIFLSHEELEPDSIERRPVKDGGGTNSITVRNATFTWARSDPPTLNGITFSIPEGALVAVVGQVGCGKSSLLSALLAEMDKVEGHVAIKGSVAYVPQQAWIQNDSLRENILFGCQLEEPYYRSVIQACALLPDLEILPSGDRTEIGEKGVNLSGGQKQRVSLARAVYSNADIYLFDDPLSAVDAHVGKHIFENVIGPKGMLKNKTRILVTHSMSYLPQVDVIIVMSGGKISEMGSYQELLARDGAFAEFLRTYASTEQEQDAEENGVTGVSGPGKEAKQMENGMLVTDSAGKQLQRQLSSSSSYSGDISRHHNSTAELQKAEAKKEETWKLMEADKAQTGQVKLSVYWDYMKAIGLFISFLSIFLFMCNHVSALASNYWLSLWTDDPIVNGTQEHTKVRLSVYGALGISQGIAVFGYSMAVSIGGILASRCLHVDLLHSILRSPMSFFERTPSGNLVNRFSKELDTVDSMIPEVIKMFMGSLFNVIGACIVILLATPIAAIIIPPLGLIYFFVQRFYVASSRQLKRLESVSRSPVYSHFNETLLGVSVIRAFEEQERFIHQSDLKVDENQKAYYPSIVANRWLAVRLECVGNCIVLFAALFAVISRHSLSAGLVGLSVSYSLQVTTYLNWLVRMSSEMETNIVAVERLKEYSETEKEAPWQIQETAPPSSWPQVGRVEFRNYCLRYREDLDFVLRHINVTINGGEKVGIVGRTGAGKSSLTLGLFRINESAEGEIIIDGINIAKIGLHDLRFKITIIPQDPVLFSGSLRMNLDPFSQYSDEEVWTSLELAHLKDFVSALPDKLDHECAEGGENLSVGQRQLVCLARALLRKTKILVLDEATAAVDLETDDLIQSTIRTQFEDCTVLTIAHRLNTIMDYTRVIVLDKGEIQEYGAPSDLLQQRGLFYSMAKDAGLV", "chain of UniProt Q6NS38 (whole entry, looked up)": "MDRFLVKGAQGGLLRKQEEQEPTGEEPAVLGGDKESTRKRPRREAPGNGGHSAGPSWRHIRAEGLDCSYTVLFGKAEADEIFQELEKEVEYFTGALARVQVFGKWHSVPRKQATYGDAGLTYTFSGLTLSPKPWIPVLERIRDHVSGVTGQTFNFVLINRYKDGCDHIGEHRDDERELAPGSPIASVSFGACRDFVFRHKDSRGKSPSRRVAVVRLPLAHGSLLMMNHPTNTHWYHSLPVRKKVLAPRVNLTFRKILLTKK"}
{"Structure (SMILES)": "O=S(=O)(O)Oc1ccc(-c2ccc(Cl)cc2)c(Cl)c1", "target": "SULT1E1 (Homo sapiens, UniProt P49888)", "test": "enzyme activity, inhibitor, radiometric", "conditions": "pH 7.4", "IC50": "> 10 µM"}
{"Structure (SMILES)": "CC(C)C[C@H](NC(=O)CN)C(=O)N[C@@H](C)C(=O)N[C@@H](C)C(=O)N[C@@H](C)C(=O)N[C@H](C(=O)N[C@H](C(=O)N[C@@H](C)C(=O)N[C@H](C(=O)O)C(C)C)C(C)C)C(C)C", "target": "HLA class I histocompatibility antigen, A alpha chain, allele A*02:02 (Homo sapiens, UniProt P04439)", "test": "peptide binding, radiolabelled peptide competition", "conditions": "added: radiolabelled standard peptide", "IC50": "0.031 µM"}
{"Structure (SMILES)": "FC(F)OC(F)C(F)(F)F (stereo not drawn)", "target": "Proton-gated ion channel (glvI, Gloeobacter violaceus, UniProt Q7NDN8)", "conditions": "pH 5.5", "IC50": "30 µM"}
{"Structure (SMILES)": "O=C(O[C@@H]1Cc2c(O)cc(O)cc2O[C@@H]1c1cc(O)c(O)c(O)c1)c1cc(O)c(O)c(O)c1", "target": "KDM4E (Homo sapiens, UniProt B2RXH2)", "test": "enzyme activity, inhibitor, fluorescence", "IC50": "3.2 µM"}
{"Structure (SMILES)": "CN1C(=O)[C@]23SS[C@@]1(C)C(=O)N2[C@H]1Nc2ccccc2[C@@]1([C@@]12c4ccccc4N[C@@H]1N1C(=O)[C@@]4(C)SS[C@]1(C(=O)N4C)[C@H]2O)[C@@H]3O", "target": "SETD7 (Homo sapiens, UniProt Q8WTS6)", "test": "enzyme activity, inhibitor, radiometric", "IC50": "> 10 µM"}
{"Structure (SMILES)": "C=C(NC(=O)C(=C)NC(=O)c1csc(C2=N[C@@H]3c4csc(n4)[C@H]4NC(=O)c5csc(n5)[C@H]([C@](C)(O)[C@@H](C)O)NC(=O)[C@H]5CSC(=N5)/C(=C/C)NC(=O)[C@H]([C@@H](C)O)NC(=O)c5csc(n5)[C@]3(CC2)NC(=O)[C@H](C)NC(=O)C(=C)NC(=O)[C@H](C)NC(=O)[C@H]([C@@H](C)CC)N[C@@H]2C=Cc3c([C@H](C)O)cc(nc3[C@H]2O)C(=O)O[C@@H]4C)n1)C(N)=O", "target": "PSMB5 (Homo sapiens, UniProt P28074)", "test": "chymotrypsin-like activity, inhibitor", "test system": "purified human 20S proteasome", "conditions": "37 °C, 15 min preincubation, added: Suc-Leu-Leu-Val-Tyr-AMC", "IC50": "1 ± 0.1 µM"}
{"Structure (SMILES)": "O=C(NC1CCCc2ccccc21)c1ccc(-c2ccccc2)cc1 (stereo not drawn)", "target": "TRPM8 (Homo sapiens, UniProt Q7Z2W7)", "test": "calcium signal, antagonist, fluorescence", "IC50": "55 µM"}
{"Structure (SMILES)": "O=C1C2CC=CCC2C(=O)N1c1n[nH]c(Cc2ccccc2)n1 (stereo not drawn)", "target": "ALPL", "test": "enzyme activity, inhibitor, luminescence", "conditions": "added: 50 µM CDP-star, 100 mM DEA", "IC50": "0.126 ± 0.005 µM"}
{"Structure (SMILES)": "Oc1c(Br)ccc(Oc2ccc(Br)cc2Br)c1Br", "target": "Type II iodothyronine deiodinase (DIO2, Homo sapiens, UniProt Q92813)", "test": "enzyme activity, inhibitor", "test system": "H4 cell microsomes", "conditions": "added: 2 nM thyroxine substrate", "IC50": "3.74 ± 1.2 µM"}
{"Structure (SMILES)": "CCCCCCCCCC(=O)N[C@@H](C)C(=O)N[C@@H](Cc1ccc(OC)cc1)C(=O)N[C@@H](CC(C)C)C(=O)C(=O)Nc1ccccc1", "target": "Proteasome component C5/PSMB5 chymotrypsin-like site", "test": "enzyme activity in cells, inhibitor", "IC50": "0.234 µM"}
{"Structure (SMILES)": "NCc1ccc(-c2ncc(OCC3CCNCC3)nc2-c2ccc3nc[nH]c3c2)cc1", "target": "Genome polyprotein NS2B-NS3 protease", "test": "inhibitor", "test system": "Zika virus", "IC50": "2.22 µM"}
{"Structure (SMILES)": "O=C1O[C@H]2[C@@H]3OC(=O)c4cc(O)c(O)c(O)c4-c4c(O)c(O)c5oc(=O)c6c(c(O)c(O)c7oc(=O)c4c5c76)-c4c(cc(O)c(O)c4O)C(=O)OC[C@H]3OC(O)[C@@H]2OC(=O)c2cc(O)c(O)c(O)c2-c2c1cc(O)c(O)c2O (mixture of isomers)", "target": "ALKBH2 (Homo sapiens, UniProt Q6NS38)", "test": "1-methyladenine repair, inhibitor, HPLC", "conditions": "1 h, 37 °C, added: ssDNA 16mer 5 µM", "IC50": "2.5 µM"}
{"Structure (SMILES)": "CN1CCN(C2=Nc3ccccc3Oc3ccc(Cl)cc32)CC1", "target": "Beta-glucuronidase (uidA, Escherichia coli, UniProt P05804)", "test": "enzyme activity, inhibitor", "test system": "Escherichia coli live cells", "conditions": "2 h, 37 °C", "IC50": "> 100 µM"}
{"Structure (SMILES)": "c1cc(-c2cnn3cc(-c4ccc(N5CCNCC5)cc4)cnc23)c2cccnc2c1", "target": "BMPR1A (Homo sapiens, UniProt P36894, Q233D)", "test": "reporter gene, inhibitor, luciferase", "IC50": "0.153 µM"}
{"Structure (SMILES)": "CCCc1nn(C)c2c(=O)[nH]c(-c3cc(S(=O)(=O)N4CCN(C)CC4)ccc3OCC)nc12", "target": "SLCO1B3 (Homo sapiens, UniProt Q9NPD5)", "test": "transport, inhibitor", "conditions": "10 (unit not given), pre-incubation, added: cholecystokinin", "IC50": "12.8 ± 0.04 µM"}
{"Structure (SMILES)": "COc1ccc(CCN2CCN(c3ccccc3OC)CC2)cc1OC", "target": "Cytochrome P450 2C9 (CYP2C9, Homo sapiens, UniProt P11712)", "test": "enzyme activity, inhibitor", "test system": "human, liver microsomes", "IC50": "> 100 µM"}
{"Structure (SMILES)": "O=C([O-])c1ccccc1-c1c2cc(Br)c(=O)cc-2oc2[c]([Hg+])c([O-])c(Br)cc12.[Na+].[Na+].[OH-]", "target": "EHMT1 (Homo sapiens, UniProt Q9H9B1)", "test": "enzyme activity, inhibitor", "IC50": "42.9 µM"}
{"Structure (SMILES)": "COc1cc([C@@H]2c3cc4c(cc3C(=O)[C@H]3COC(=O)[C@H]23)OCO4)cc(OC)c1OC", "target": "tubulin alpha/beta (Leishmania infantum, UniProt A0A381MCS3+A4HTR0)", "test": "tubulin polymerization, inhibitor", "conditions": "37 °C", "IC50": "4 ± 0.2 µM"}
{"Structure (SMILES)": "Cc1c(P(=S)(c2ccccc2)c2ccccc2)n2ccccc2[n+]1CCCc1ccccc1", "target": "NPSR1 (Homo sapiens, UniProt Q6W5P4)", "test": "ERK phosphorylation, antagonist, HTRF", "test system": "CHO (NPSR1 transfected)", "IC50": "0.0035 µM"}
{"Structure (SMILES)": "O=C(O)c1ccccc1-c1c2ccc(=O)c([As]3SCCS3)c-2oc2c([As]3SCCS3)c(O)ccc12", "target": "PTPN1 (Homo sapiens, UniProt P18031, A122C/P87C)", "test": "enzyme activity, inhibitor", "test system": "crude Escherichia coli lysate", "conditions": "120 min, 37 °C, added: pNPP", "IC50": "2.2 µM"}
{"Structure (SMILES)": "NCc1ccc(-c2ncc(OCC3CCNCC3)nc2-c2cc3ccccc3[nH]2)cc1", "target": "Genome polyprotein NS2B-NS3 protease", "test": "inhibitor", "test system": "Zika virus", "IC50": "21.1 µM"}
{"Structure (SMILES)": "CO[C@H]1CC=C2CCN3CCC4=C(CC(=O)OC4)[C@]23C1", "target": "KCNK18 (Homo sapiens, UniProt Q7Z418)", "test": "ion flux, inhibitor", "IC50": "18.8 µM"}
{"Structure (SMILES)": "Nc1ccccc1C(=O)O", "target": "mushroom tyrosinase", "test": "diphenolase activity, inhibitor", "conditions": "pH 6.8, 20 °C, added: caffeic acid substrate", "IC50": "~4.72 µM and 4.72 µM"}
{"Structure (SMILES)": "CC(C)C[C@H](NC(=O)OCc1ccccc1)C(=O)N[C@@H](Cc1c[nH]c2ccccc12)C(=O)N[C@@H](CC(C)C)C(=O)C(=O)Nc1ccccc1", "target": "Proteasome component C5/PSMB5 chymotrypsin-like site", "test": "enzyme activity in cells, inhibitor", "IC50": "0.0665 µM"}
{"Structure (SMILES)": "Nc1cc(N)c(N=Nc2ccc(S(=O)(=O)Nc3nccs3)cc2)cc1N=Nc1ccc(S(=O)(=O)Nc2nccs2)cc1", "target": "Genome polyprotein NS2B-NS3 protease", "test": "enzyme activity, inhibitor", "test system": "Zika virus", "conditions": "pH 8.0, added: 20 µM Pyr-RTKR-AMC", "IC50": "1.12 µM"}
{"Structure (SMILES)": "C[C@@H]1C[C@H]2[C@@H]3CCC4=CC(=O)C=C[C@]4(C)[C@@]3(Cl)[C@@H](O)C[C@]2(C)[C@@]1(OC(=O)c1ccco1)C(=O)CCl", "target": "ABCC1 (Homo sapiens, UniProt P33527)", "test": "substrate efflux, inhibitor, flow cytometry", "test system": "ABCC1-overexpressing SupT1-Vin cells", "conditions": "added: BODIPY-FL-vinblastine 500 nM", "IC50": "1.8 ± 1.1 µM"}
{"Structure (SMILES)": "O=C([O-])c1ccccc1-c1c2cc(Br)c(=O)cc-2oc2[c]([Hg+])c([O-])c(Br)cc12.[Na+].[Na+].[OH-]", "target": "Dual specificity protein phosphatase 5 (Homo sapiens, UniProt Q16690)", "test": "phosphatase activity", "conditions": "60 min, 1 mM DTT, added: pNPP", "IC50": "19.7 ± 0.6 µM"}
{"Structure (SMILES)": "C=CC[N+](C)(C)c1ccc(CCC(=O)CCc2ccc([N+](C)(C)CC=C)cc2)cc1", "target": "Ache (Rattus norvegicus, UniProt P37136)", "test": "enzyme activity, inhibitor, radiometric", "test system": "rat, aging, heart homogenate", "conditions": "15 min, 37 °C", "IC50": "3 µM"}
{"Structure (SMILES)": "CC[C@H](C)[C@H](NC(=O)[C@H](Cc1ccc(O)cc1)NC(=O)[C@H](CC(C)C)NC(=O)[C@H](C)N)C(=O)N1CCC[C@H]1C(=O)N1CCC[C@H]1C(=O)N[C@@H](Cc1ccc(O)cc1)C(=O)N[C@@H](CCC(=O)O)C(=O)N[C@@H](CC(C)C)C(=O)O", "target": "HLA class I histocompatibility antigen, A alpha chain, allele A*02:01 (Homo sapiens, UniProt P04439)", "test": "binding, competitive radioligand binding", "conditions": "48 h, 37 °C, added: radiolabelled FLPSDYFPSV 1 nM", "IC50": "0.586 µM"}
{"Structure (SMILES)": "O=[N+]([O-])c1ccc(-c2nc3cc4nc5ccccc5nc4cc3[nH]2)cc1O", "target": "Genome polyprotein protease", "test": "enzyme activity, inhibitor, fluorescence", "conditions": "pH 8.5", "IC50": "54.8 µM"}
{"Structure (SMILES)": "Oc1ccc(-c2cc(Br)c(-c3ccc(O)c(Cl)c3)[se]2)cc1Cl", "target": "Estrogen receptor (ESR1, Homo sapiens, UniProt P03372)", "test": "antagonist", "test system": "HEK293T", "conditions": "added: estradiol 10 nM", "IC50": "0.561 µM"}
{"Structure (SMILES)": "NCCCOc1ccc(Cl)cc1C(=O)Nc1ccc([N+](=O)[O-])cc1Cl", "target": "Genome polyprotein protease", "test": "enzyme activity, inhibitor, FRET", "IC50": "39.7 µM"}
{"Structure (SMILES)": "CC(C)C[C@H](NC(=O)[C@H](CO)NC(=O)[C@H](Cc1c[nH]c2ccccc12)NC(=O)[C@H](Cc1ccc(O)cc1)NC(=O)[C@H](CC(=O)O)NC(=O)[C@H](CC(C)C)NC(=O)CN)C(=O)O", "target": "Transcriptional regulator ComR (Streptococcus mutans serotype c, UniProt Q8DWI6)", "test system": "Streptococcus mutans", "IC50": "> 50 µM"}
{"Structure (SMILES)": "NCc1ccc(-c2ncc(OCCC3CCNCC3)nc2-c2ccc(CN)cc2)cc1", "target": "Genome polyprotein NS2B-NS3 protease", "test": "inhibitor", "test system": "Zika virus", "IC50": "> 10 µM"}
{"Structure (SMILES)": "COc1ccc(C)cc1S(=O)(=O)Nc1cccnc1", "target": "ALPL", "test": "enzyme activity, inhibitor, colorimetric OD405", "conditions": "HTS library sample, added: 0.5 mM pNPP", "IC50": "0.708 µM"}
{"Structure (SMILES)": "CC12CC3CC1(C)C1(C)CC3(CN)CC21C", "target": "Glutamate NMDA receptor; Grin1/Grin2a (Grin1/Grin2a, Rattus norvegicus, UniProt P35439+Q00959)", "test": "glutamate-evoked current, inhibitor, whole-cell patch clamp", "test system": "tsA201 cells", "conditions": "holding potential -65 mV, added: 1 mM glutamate", "IC50": "1.01 ± 0.13 µM"}
